{"data": "Experimental data from different studies", "target": "Muscle, skeletal receptor tyrosine-protein kinase (MUSK, Homo sapiens, UniProt O15146)", "note": "Each line is one published result; not all experiments were run side by side. Several values in a cell are separate wells, animals, samples, runs or records."}
{"Compound": "NC(=O)C[C@H]1CCc2sc3ncnc(O[C@H]4CC[C@H](N5CCOCC5)CC4)c3c21", "assay": "enzyme activity, inhibitor", "conditions": "10 µM", "measurement": "inhibition", "result": "14%"}
{"Compound": "CNC1C[S+]2CC[S+]3CC[S+](C1)[Ru-4]321([N]=C=S)[n]2c3ccc(OC)cc3c3c4c(c5cc(F)c[n+]1c5c32)C(=O)NC4=O (stereo not drawn)", "assay": "KinomeScan", "conditions": "0.1 µM", "how to read": "baseline: untreated", "measurement": "remaining binding", "result": "88%"}
{"Compound": "O=C(Cc1ccc(OCc2ccccc2)cc1)NC1(C(=O)O)CCN(C(=O)c2ccc(-c3cccc(Cl)c3)cc2)CC1", "assay": "enzyme activity, inhibitor", "conditions": "10 µM", "measurement": "activity vs control", "result": "91%"}
{"Compound": "COCC12C(=O)NC3C4(C(OC)CC1O)C1CC5(O)C(OC)C(O)C(OC(C)=O)(C1C5OC(=O)c1ccccc1)C3(O)C(OC)C24 (stereo not drawn)", "assay": "kinase activity, inhibitor, ProQinase kinase profiling", "conditions": "25 µM", "how to read": "baseline: control", "measurement": "remaining activity", "result": "97%"}
{"Compound": "Nc1ncc(-c2cc(-c3cnn(CC(F)(F)F)c3)ncc2F)nc1C(=O)NC1CNCC(F)C1 (stereo not drawn)", "assay": "enzyme activity", "conditions": "1 µM", "how to read": "baseline: DMSO control", "measurement": "remaining activity", "result": "86.4%"}
{"Compound": "C=CC(=O)N1CCCC(n2c(=O)c3ncccc3n(Cc3ccc(Oc4ccccc4)cc3)c2=O)C1 (stereo not drawn)", "assay": "cell-free assay, competition with immobilised ligand", "conditions": "1 µM", "measurement": "remaining binding", "result": "99%"}
{"Compound": "COc1ccc(NC(=O)Nc2ccc3c(c2)C(=O)N(C(C)CO)CC(C)C(CN(C)Cc2ccc4c(c2)OCO4)O3)cc1 (stereo not drawn)", "assay": "kinase activity, KinaseProfiler", "conditions": "0.03 µM, species human", "how to read": "baseline: control", "measurement": "remaining activity", "result": "95%"}
{"Compound": "CC(C)=CC1OC(C)(C)C2C=C3C(=O)C(Cl)=CC(O)C3C3C(O)C4OC4C(=O)C132 (stereo not drawn)", "assay": "cell-free assay, competition with immobilised ligand", "conditions": "10 µM", "measurement": "remaining binding", "result": "99%"}
{"Compound": "Cc1ccc(-c2c(/C=C(\\C#N)C(=O)NC(C)C)n(CCCO)c3ncnc(N)c23)cc1", "assay": "cell-free assay, competition with immobilised ligand", "conditions": "1 µM", "measurement": "remaining binding", "result": "100%"}
{"Compound": "Nc1ncc2c(n1)-c1c([nH]c3ccc(C4=CCOCC4)cc13)CCC2", "assay": "binding, competition with immobilised ligand", "conditions": "1 µM", "measurement": "remaining binding", "result": "100%"}
{"Compound": "C=CC(=O)Nc1cccc(-c2cnc3[nH]cc(C(=O)NC(C)(C)C)c3n2)c1", "assay": "kinase activity", "conditions": "0.1 µM", "measurement": "inhibition", "result": "12% and 5%"}
{"Compound": "Cc1cccc(O[C@H]2CCC[C@@H](C(C)CNCc3ccncc3)C2)c1 (relative stereo)", "assay": "enzyme activity, inhibitor", "conditions": "10 µM", "measurement": "inhibition", "result": "-3%"}
{"Compound": "C=CC(=O)N1Cc2nc(-c3cc(-c4cc(Cl)cnc4Cl)c(F)cc3F)n(-c3ccncn3)c2C1", "assay": "cell-free assay, inhibitor", "conditions": "1 µM", "measurement": "inhibition", "result": "11.2%"}
{"Compound": "COc1cc(Nc2nc(C)cc(-c3cnn4nc(OC)ccc34)n2)cc(C(F)(F)F)c1", "assay": "inhibitor", "conditions": "1 µM", "how to read": "baseline: control", "measurement": "remaining activity", "result": "100%"}
{"Compound": "CCN1CCN(Cc2ccc(NC(=O)c3ccc(C)c(NC(=O)c4cncc(-c5cccs5)c4)c3)cc2C(F)(F)F)CC1", "assay": "binding, competition with immobilised ligand", "conditions": "1 µM", "measurement": "remaining binding", "result": "3%"}
{"note": "Excerpt of the above:"}
{"Compound": "Nc1ncc(-c2cc(-c3cnn(CC(F)(F)F)c3)ncc2F)nc1C(=O)NC1CNCC(F)C1 (stereo not drawn)", "assay": "enzyme activity", "conditions": "1 µM", "how to read": "baseline: DMSO control", "measurement": "remaining activity", "result": "86.4%"}
{"Compound": "C=CC(=O)N1CCCC(n2c(=O)c3ncccc3n(Cc3ccc(Oc4ccccc4)cc3)c2=O)C1 (stereo not drawn)", "assay": "cell-free assay, competition with immobilised ligand", "conditions": "1 µM", "measurement": "remaining binding", "result": "99%"}
